Results from different studies.
Each numbered part is a random draw from the data of one study; scales do not carry over between parts. Values joined by “and” are separate records of one study, mostly repeats; a detail may differ.
Chain of UniProt P50750 (whole entry, looked up): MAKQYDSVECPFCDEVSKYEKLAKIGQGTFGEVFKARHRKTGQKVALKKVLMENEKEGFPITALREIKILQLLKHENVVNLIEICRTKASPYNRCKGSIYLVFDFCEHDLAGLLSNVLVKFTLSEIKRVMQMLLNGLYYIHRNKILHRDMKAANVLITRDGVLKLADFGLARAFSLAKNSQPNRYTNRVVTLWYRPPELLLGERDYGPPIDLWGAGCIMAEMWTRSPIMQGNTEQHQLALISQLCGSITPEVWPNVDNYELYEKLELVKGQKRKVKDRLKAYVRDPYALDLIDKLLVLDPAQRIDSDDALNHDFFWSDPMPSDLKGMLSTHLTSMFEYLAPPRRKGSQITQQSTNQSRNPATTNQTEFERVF
Chain of UniProt Q9Y2U5 (whole entry, looked up): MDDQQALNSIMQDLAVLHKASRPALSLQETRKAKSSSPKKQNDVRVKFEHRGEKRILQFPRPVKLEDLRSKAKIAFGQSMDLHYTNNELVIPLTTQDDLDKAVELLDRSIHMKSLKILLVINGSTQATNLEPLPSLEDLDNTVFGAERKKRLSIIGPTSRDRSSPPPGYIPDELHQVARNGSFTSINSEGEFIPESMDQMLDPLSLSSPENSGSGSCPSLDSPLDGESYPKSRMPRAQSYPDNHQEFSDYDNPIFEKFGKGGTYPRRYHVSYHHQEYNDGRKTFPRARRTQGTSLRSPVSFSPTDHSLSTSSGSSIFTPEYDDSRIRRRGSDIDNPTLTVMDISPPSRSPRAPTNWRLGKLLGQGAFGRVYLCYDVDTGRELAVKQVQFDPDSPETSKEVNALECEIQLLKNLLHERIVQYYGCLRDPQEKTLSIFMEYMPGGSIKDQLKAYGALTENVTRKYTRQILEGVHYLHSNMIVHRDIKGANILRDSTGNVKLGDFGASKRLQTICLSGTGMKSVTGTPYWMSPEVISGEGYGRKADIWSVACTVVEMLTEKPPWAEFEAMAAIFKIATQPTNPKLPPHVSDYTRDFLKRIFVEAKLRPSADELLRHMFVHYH
Chain of UniProt P48729 (whole entry, looked up): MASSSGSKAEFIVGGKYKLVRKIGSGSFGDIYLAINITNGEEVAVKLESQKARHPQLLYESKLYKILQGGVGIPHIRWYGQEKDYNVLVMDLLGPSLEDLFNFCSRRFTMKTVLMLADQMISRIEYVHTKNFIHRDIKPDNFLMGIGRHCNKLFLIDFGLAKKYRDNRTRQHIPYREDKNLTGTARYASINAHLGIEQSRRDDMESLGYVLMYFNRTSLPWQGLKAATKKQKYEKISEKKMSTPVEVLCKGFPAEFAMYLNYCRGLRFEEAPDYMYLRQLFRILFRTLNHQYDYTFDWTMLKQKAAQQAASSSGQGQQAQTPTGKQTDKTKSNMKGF
Chain of UniProt O00141 (whole entry, looked up): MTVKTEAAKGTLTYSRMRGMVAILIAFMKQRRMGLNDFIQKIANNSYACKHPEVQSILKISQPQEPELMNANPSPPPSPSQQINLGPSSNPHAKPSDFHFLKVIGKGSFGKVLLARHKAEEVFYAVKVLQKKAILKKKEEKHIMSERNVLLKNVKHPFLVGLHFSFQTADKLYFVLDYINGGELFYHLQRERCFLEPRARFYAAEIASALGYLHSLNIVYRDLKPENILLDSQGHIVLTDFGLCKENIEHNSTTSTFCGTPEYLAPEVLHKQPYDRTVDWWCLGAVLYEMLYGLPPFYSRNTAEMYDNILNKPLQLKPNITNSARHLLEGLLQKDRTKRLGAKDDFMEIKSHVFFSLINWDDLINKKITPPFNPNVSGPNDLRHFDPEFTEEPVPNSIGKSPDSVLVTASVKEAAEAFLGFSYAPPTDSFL
Chain of UniProt P42338 (whole entry, looked up): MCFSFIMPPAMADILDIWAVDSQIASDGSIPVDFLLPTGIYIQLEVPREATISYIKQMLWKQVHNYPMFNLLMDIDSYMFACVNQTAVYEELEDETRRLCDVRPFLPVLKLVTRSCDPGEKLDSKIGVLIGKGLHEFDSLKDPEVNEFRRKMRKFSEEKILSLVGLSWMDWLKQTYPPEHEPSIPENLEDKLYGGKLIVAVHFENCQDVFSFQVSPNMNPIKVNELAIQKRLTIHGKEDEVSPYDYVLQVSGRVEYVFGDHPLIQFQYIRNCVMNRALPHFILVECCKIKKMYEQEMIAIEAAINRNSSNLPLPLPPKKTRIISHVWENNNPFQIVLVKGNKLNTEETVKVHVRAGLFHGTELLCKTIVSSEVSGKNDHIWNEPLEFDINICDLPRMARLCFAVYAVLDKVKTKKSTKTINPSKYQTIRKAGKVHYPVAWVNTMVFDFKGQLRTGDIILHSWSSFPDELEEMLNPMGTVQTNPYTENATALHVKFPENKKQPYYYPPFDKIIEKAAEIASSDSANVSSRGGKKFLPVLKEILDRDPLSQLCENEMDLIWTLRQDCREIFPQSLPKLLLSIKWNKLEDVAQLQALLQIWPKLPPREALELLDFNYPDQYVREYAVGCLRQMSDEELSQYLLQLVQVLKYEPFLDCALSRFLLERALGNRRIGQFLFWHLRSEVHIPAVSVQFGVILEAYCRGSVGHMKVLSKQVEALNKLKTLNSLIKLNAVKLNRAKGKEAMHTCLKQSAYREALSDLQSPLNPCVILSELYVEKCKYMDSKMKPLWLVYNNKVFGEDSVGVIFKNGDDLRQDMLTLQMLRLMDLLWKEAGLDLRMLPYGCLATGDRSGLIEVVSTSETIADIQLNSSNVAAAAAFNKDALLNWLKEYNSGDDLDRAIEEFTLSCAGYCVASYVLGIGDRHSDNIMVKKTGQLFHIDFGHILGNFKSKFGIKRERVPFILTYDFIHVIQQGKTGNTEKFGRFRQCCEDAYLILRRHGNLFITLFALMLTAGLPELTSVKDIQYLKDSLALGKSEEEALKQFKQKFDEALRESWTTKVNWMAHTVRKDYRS
Chain of UniProt Q9UPE1 (whole entry, looked up): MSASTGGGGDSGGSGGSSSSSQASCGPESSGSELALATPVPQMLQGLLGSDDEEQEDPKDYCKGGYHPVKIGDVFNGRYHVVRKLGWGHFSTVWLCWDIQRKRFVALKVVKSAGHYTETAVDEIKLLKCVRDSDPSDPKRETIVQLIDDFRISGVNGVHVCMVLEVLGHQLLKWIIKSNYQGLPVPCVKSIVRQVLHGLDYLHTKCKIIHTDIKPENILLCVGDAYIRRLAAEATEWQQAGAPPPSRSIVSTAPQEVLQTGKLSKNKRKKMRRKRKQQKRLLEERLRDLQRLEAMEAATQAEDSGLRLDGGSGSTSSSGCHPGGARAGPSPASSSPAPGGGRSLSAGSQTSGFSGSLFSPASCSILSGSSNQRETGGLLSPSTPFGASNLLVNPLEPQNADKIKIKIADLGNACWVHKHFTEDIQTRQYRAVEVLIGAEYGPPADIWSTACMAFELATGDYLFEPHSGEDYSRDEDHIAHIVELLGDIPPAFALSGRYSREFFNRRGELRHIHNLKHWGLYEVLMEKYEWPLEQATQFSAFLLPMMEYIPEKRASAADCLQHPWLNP
Chain of UniProt P11309 (whole entry, looked up): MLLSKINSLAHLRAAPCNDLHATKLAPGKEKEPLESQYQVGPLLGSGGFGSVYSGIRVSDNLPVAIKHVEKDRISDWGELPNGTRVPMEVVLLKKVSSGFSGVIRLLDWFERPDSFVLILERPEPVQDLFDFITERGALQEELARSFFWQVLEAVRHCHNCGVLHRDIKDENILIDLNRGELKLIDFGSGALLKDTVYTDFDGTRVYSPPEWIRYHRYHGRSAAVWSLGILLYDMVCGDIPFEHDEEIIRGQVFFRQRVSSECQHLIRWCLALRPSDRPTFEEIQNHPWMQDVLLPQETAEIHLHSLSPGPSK

Study 1
Compound: CC(C)S(=O)(=O)c1ccc2nccc(Nc3ccc4sc(C5CCCC5)nc4c3)c2c1
Read-out: kinase activity
Mode: inhibitor
Tested at: 1 µM
target | remaining activity [%]
CSNK1A1 (Homo sapiens, UniProt P48729) | 100
PIP5K1A (Homo sapiens, UniProt Q99755) | 102
MAP3K2 (Homo sapiens, UniProt Q9Y2U5) | 99.5

Study 2
Target: Angiopoietin-1 receptor (TEK, Homo sapiens, UniProt Q02763)
Chain of UniProt Q02763 (whole entry, looked up): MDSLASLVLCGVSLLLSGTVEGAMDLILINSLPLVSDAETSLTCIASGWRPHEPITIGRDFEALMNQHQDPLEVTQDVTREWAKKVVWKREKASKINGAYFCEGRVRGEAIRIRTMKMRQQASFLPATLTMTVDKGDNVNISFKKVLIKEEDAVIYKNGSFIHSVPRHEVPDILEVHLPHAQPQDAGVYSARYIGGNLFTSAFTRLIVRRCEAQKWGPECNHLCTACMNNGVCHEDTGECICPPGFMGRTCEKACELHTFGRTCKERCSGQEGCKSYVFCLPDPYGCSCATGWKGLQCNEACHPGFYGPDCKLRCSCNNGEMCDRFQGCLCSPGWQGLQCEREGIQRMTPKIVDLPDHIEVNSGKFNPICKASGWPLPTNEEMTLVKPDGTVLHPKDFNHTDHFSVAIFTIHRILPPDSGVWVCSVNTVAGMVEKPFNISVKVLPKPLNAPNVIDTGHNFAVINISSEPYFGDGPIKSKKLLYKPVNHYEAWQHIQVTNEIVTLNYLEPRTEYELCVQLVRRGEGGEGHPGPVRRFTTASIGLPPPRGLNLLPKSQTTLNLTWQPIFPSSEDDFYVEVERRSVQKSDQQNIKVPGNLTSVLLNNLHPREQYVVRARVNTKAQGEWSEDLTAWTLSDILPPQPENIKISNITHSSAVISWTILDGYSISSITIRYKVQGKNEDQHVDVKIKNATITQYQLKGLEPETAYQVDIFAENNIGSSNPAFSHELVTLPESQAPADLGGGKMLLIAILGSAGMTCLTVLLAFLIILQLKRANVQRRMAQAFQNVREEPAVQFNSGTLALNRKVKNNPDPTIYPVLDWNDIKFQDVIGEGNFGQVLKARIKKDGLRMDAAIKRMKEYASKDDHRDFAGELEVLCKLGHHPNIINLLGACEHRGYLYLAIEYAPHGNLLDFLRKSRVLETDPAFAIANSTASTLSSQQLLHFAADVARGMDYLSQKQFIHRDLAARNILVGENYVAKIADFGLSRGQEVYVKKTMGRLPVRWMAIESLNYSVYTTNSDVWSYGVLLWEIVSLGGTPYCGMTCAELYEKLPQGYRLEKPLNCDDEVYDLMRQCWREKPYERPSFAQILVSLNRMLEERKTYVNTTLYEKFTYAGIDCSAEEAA
Read-out: enzyme activity
Mode: inhibitor
Tested at: 0.5 µM
Reference: control
SMILES | remaining activity [%]
CCCCc1c(-c2ccc(O)cc2)[nH]c2nccnc12 | 97
COc1cc2c(N3CCN(C(=O)Nc4ccc(OC(C)C)cc4)CC3)ncnc2cc1OCCCN1CCCCC1 | 99.6
Nc1nc(Nc2ccc(S(N)(=O)=O)cc2)nn1C(=S)Nc1c(F)cccc1F | 5.06
N#CC(c1ccnc(NCCc2cccnc2)n1)c1nc2ccccc2s1 (centres unmarked) | 97.5
CC(C)n1cnc2c(Nc3cccc(Cl)c3)nc(NCCO)nc21 | 97.4
O=C(O)/C=C/c1cc(Br)c(Br)c(Br)c1Br | 94.4
NC(=O)c1cccc(-c2cc(Nc3ccc(OC(F)(F)F)cc3)ncn2)c1 | 94.2
CNc1cc2c(Nc3cccc(Br)c3)ncnc2cn1 | 87.9
CC(C)(C)c1nc2c3cc[nH]c(=O)c3c3cc(F)ccc3c2[nH]1 | 101
N#C/C(=C(/N)SC1C=CC=CC1)c1cccc(C(O)c2ccncc2)c1 (centres unmarked) | 101
O=Nc1c(-c2c(O)[nH]c3ccccc23)[nH]c2ccccc12 | 98.7
COc1cc2c(Nc3ccc(Br)cc3F)ncnc2cc1OCC1CCN(C)CC1 | 50.8
c1cc(-c2cnn3cc(-c4ccc(OCCN5CCCCC5)cc4)cnc23)ccn1 | 99.3
NC(=O)c1ccc(-c2nc(-c3ccc4c(c3)OCCO4)c(-c3ccccn3)[nH]2)cc1 | 97.9
O=C1NC(=O)/C(=C/c2ccc3c(c2)OC(F)(F)O3)S1 | 91.9
O=c1c(-c2ccc(F)cc2)c(-c2ccncc2)[nH]n1-c1ccc(Cl)cc1 | 94.4
O=C1c2ccccc2-c2nc3nnnn3nc21 | 4.27
FC(F)(F)c1ccc(/C=C/c2nc(COc3ccc(CCCCn4ccnn4)cc3)co2)cc1 | 95.8
C[C@@H](N)[C@H]1CC[C@H](C(=O)Nc2ccncc2)CC1 | 99.6
CCN(CC)CCCCN1c2ccccc2Oc2ccc(Cl)cc21 | 103
Clc1ccc(Nc2nnc(Cc3ccncc3)c3ccccc23)cc1 | 97.5

Study 3
Cell line: A-375
Tested at: 100 µM
Time: 18 h
Compound | viability
CC(C(=O)O)c1ccc2c(c1)Cc1cccnc1O2 (centres unmarked) | 97.8%
N[C@@H](C(=O)N[C@@H]1C(=O)N2C(C(=O)O)=C(Cl)CS[C@H]12)c1ccccc1 | 102%
CC(C)NCC(O)COc1cccc2[nH]ccc12 (centres unmarked) | 89.4%
CCC[C@@H]1C[C@@H](C(=O)N[C@@H]([C@H]2O[C@H](SC)[C@H](O)[C@@H](O)[C@H]2O)[C@@H](C)O)N(C)C1 | 95.1% and 92.6%
C/C=C(/C(=C/C)c1ccc(O)cc1)c1ccc(O)cc1 | 8.78%
Cc1cnc(C(=O)N[C@H]2CCCCC/C=C\[C@@H]3C[C@@]3(C(=O)NS(=O)(=O)C3CC3)NC(=O)[C@@H]3C[C@@H](Oc4nc5ccccc5c5ccccc45)CN3C2=O)cn1 | 35.9%
Nc1ccc(S(=O)(=O)Nc2nccs2)cc1 | 92.9%
Cn1c(=O)c2c(ncn2CC(O)CO)n(C)c1=O (centres unmarked) | 92.5%
CCCCC(=O)N(Cc1ccc(-c2ccccc2-c2nnn[nH]2)cc1)[C@H](C(=O)O)C(C)C | 105%
CCCCc1nc(Cl)c(CO)n1Cc1ccc(-c2ccccc2-c2nn[nH]n2)cc1 | 94.2% and 101%

Study 4
SMILES: COc1cccc(CNC(=O)c2nc3scc(COCc4ccc(C(=O)O)cc4)c3c(=O)[nH]2)c1
Read-out: cell-free assay
Method: competition with immobilised ligand
Tested at: 1 µM
target | remaining binding [%]
Ribosomal protein S6 kinase alpha-5, C-terminal kinase domain (RPS6KA5, Homo sapiens, UniProt O75582) | 93.1
LIM domain kinase 1 (LIMK1, Homo sapiens, UniProt P53667) | 96.8
CDK9 (Homo sapiens, UniProt P50750) | 78.6
CSNK1G2 (Homo sapiens, UniProt P78368) | 97.2
SGK1 (Homo sapiens, UniProt O00141) | 93.4
SRPK3 (Homo sapiens, UniProt Q9UPE1) | 70.1
MAP4K3 (Homo sapiens, UniProt Q8IVH8) | 99.8
MAP4K1 (Homo sapiens, UniProt Q92918) | 100
PIM1 (Homo sapiens, UniProt P11309) | 100
PIK3CB (Homo sapiens, UniProt P42338) | 54.8

Excerpt of the above (study 4):
target | remaining binding [%]
PIM1 (Homo sapiens, UniProt P11309) | 100
MAP4K1 (Homo sapiens, UniProt Q92918) | 100
SGK1 (Homo sapiens, UniProt O00141) | 93.4
MAP4K3 (Homo sapiens, UniProt Q8IVH8) | 99.8
CDK9 (Homo sapiens, UniProt P50750) | 78.6
LIM domain kinase 1 (LIMK1, Homo sapiens, UniProt P53667) | 96.8
